Measured values pooled from the literature.
Each numbered part is a random draw from the data of one study; scales do not carry over between parts. ± marks the error that the study gave.

Set 1
Organism: SARS-CoV-2 Wuhan spike VSV pseudovirus
Read-out: pseudovirus entry
Concentration: 10 µM
Quantity: inhibition
Compound = CCC(CC)C(=O)N1CCN(c2nc3ccccc3nc2C(F)(F)F)CC1; result = 74%
Compound = Cc1nn(C)c2c(=O)n(C(C)C(=O)Nc3ccc(N4CCOCC4)cc3)ccc12 (centres unmarked); result = 86%
Compound = Cc1ccsc1CNc1ccc(C(=O)N2CCCC(Cn3ccnc3C)C2)cc1 (centres unmarked); result = 99%
Compound = CC(CCc1ccccc1)NC(=O)c1ccc(-c2cc(N3CCOCC3)ncn2)cc1 (centres unmarked); result = 80%
Compound = Cn1c(CC2CCNCC2)nnc1SCc1cc(F)ccc1Cl; result = 100%
Compound = OC(Cc1ccccc1)c1ccc2c(c1)CN(Cc1ccc3ccccc3n1)CCO2 (centres unmarked); result = 89%
Compound = CCCCn1c(N)c(C#N)c2nc3ccccc3nc21; result = 85%
Compound = CC(=O)c1ccc(NC(=O)CSc2nnc(-c3nc(-c4ccccc4)no3)n2C)cc1; result = 83%
Compound = CSc1ccc(CN2CC[C@@H](N3CCN(c4ccccc4F)CC3)[C@H](O)C2)cc1; result = 71%
Compound = COc1cc(C=C2COC/C(=C\c3cc(OC)c(OC)c(OC)c3)C2=O)cc(OC)c1OC; result = 46%
Compound = Cc1cc(C(=O)N(C)Cc2nc3ccccc3n2C)cc(S(N)(=O)=O)c1C; result = 100%
Compound = CCOC(=O)N1CCN(C(=O)Cn2ncc(Cl)c(Cl)c2=O)CC1; result = 54%
Compound = COc1cccc(F)c1-c1ccc2cc[nH]c(=O)c2c1; result = 100%
Compound = O=C(NCCSc1ccc([N+](=O)[O-])c2onnc12)Oc1cccc(C(F)(F)F)c1; result = 57%
Compound = OC[C@@H]1CN(C2CCCC2)C[C@H]1c1nc(-c2ccncc2)no1; result = 56%
Compound = Cc1ccc2[nH]c(C(=O)NCc3cccs3)c(NCc3ccc(Cl)cc3)c2c1; result = 53%

Further values, each from its own experiment
rep nsp14: Replicase polyprotein 1ab, nsp14 (rep, Severe acute respiratory syndrome coronavirus 2, UniProt P0DTD1)
rep nsp12 RdRp: Replicase polyprotein 1ab, nsp12 RdRp (rep, Severe acute respiratory syndrome coronavirus 2, UniProt P0DTD1)
rep papain-like protease: Replicase polyprotein 1ab, papain-like protease (rep, Severe acute respiratory syndrome coronavirus 2, UniProt P0DTD1)
Matrix protein 2 S31N: Matrix protein 2 (Influenza A virus, UniProt P0DOF5, S31N)
Substance = CC(C)(C)[C@H](NC(=O)C(F)(F)F)C(=O)N1C[C@H]2[C@@H]([C@H]1C(=O)N[C@H](C#N)C[C@@H]1CCNC1=O)C2(C)C; tested on = SARS-CoV-2; assay = viral replication, replicon; test system = A5328S Mpro cleavage-site mutant; quantity = EC50; result = 0.008 µM
Substance = O=C(NC1CCN(c2ncnc3[nH]cnc23)CC1)c1cccc(S(=O)(=O)N2CCCCC2)c1; tested on = rep nsp14; assay = NSP14 enzyme activity, inhibitor; conditions = 200 µM; quantity = inhibition; result = 82.3%
Substance = SLVAVTAAQSTIEEQAKHFLDKFN; tested on = SARS-CoV-2 spike RBD; assay = peptide spot array; test system = peptide; conditions = concentration not given; how to read = relative to: wild-type ACE2 peptide; quantity = relative binding; result = 3.01
Substance = Nc1ncnc2c1ncn2[C@@H]1O[C@H](CO)[C@@H](O)[C@@H]1O; tested on = SARS-CoV-2; assay = viral replication; test system = Vero C1008, Omicron BA.1; conditions = 48 h, reduction of infectious virus; quantity = EC90; result = 12.7 ± 0.36 µM
Substance = NC(=O)C1=CN([C@@H]2O[C@H](COP(=O)([O-])OP(=O)([O-])OC[C@H]3O[C@@H](n4cnc5c(N)ncnc54)[C@H](O)[C@@H]3O)[C@@H](O)[C@H]2O)C=CC1.[Na+].[Na+]; tested on = rep nsp12 RdRp; assay = binding, biolayer interferometry; conditions = concentration not given; quantity = BLI response; result = 0 nm
Substance = C[C@@H]1CC[C@]2(C(=O)O[C@@H]3O[C@H](CO)[C@@H](O)[C@H](O)[C@H]3O)CC[C@]3(C)C(=CC[C@@H]4[C@@]5(C)C[C@@H](O)[C@H](O)C(C)(C)[C@@H]5CC[C@]43C)[C@@H]2[C@]1(C)O; tested on = rep papain-like protease; conditions = concentration not given, C111S mutant; how to read = relative to: positive control; quantity = activity; result = 18.7%
Substance = N#C[C@@]1(n2ccc(N)nc2=O)O[C@H](CO)[C@@H](O)[C@H]1O; tested on = SARS-CoV-2; assay = viral replication; test system = Calu-3, Alpha; quantity = EC90; result = 5.4 ± 5 µM
Substance = Nc1ncnc2c1ncn2[C@@H]1O[C@H](CSCC[C@H](N)C(=O)O)[C@@H](O)[C@H]1O; tested on = rep nsp14; assay = thermal shift; conditions = 15.63 µM; quantity = ΔTm; result = 7.2 °C
Substance = CC(C)C(=O)OC[C@H]1O[C@@H](n2ccc(NO)nc2=O)[C@H](O)[C@@H]1O; tested on = SARS-CoV-2; assay = infectious virus yield; test system = Vero C1008, Omicron BA.1; conditions = 48 h; quantity = EC50; result = 2.6 ± 0.11 µM
Substance = CCC(CC)[C@H](NC(C)=O)[C@@H]1[C@H](O)[C@@H](C(=O)O)C[C@H]1N=C(N)N; tested on = neuraminidase (Influenza B virus, UniProt A0A1S5RAG6, I221L); quantity = IC50; result = 0.0206 ± 0.003 µM
Substance = CCC(CC)COC(=O)[C@H](C)N[P@](=O)(OC[C@H]1O[C@@](C#N)(c2ccc3c(N)ncnn23)[C@H](O)[C@@H]1O)Oc1ccccc1; tested on = SARS-CoV-2; assay = viral replication; test system = Calu-3, Gamma; quantity = EC50; result = 0.2 ± 0.1 µM
Substance = CC(C)CN(C[C@@H](O)[C@H](Cc1ccccc1)NC(=O)O[C@H]1CO[C@H]2OCC[C@H]21)S(=O)(=O)c1ccc(N)cc1.CCO; tested on = rep papain-like protease; conditions = concentration not given, C111S mutant; how to read = relative to: positive control; quantity = activity; result = 23.6%
Substance = C1=CC2C3C4C5C=CC4C24CNCC54C13.Cl; tested on = Matrix protein 2 S31N; conditions = concentration not given, pH 5.5, cell-based; quantity = inhibition; result = 0%
Substance = C[C@@H](O)[C@H]1C(=O)N2C(C(=O)O)=C(S[C@@H]3CN[C@H](C(=O)Nc4cccc(C(=O)[O-])c4)C3)[C@H](C)[C@H]12.[Na+]; tested on = rep nsp12 RdRp; assay = binding, biolayer interferometry; conditions = concentration not given; quantity = BLI response; result = -0.03 nm
Substance = CNCC12CC3CC(CC1C3)C2; tested on = Matrix protein 2 S31N; conditions = concentration not given, pH 5.5, cell-based; quantity = inhibition; result = 0%
Substance = SLVAVTAAQSTIEEQHKTFLDKFN; tested on = SARS-CoV-2 spike RBD; assay = peptide spot array; test system = peptide; conditions = concentration not given; how to read = relative to: wild-type ACE2 peptide; quantity = relative binding; result = 3.07

For quick reference, copied from above (further values, each from its own experiment):
Substance = CC(C)CN(C[C@@H](O)[C@H](Cc1ccccc1)NC(=O)O[C@H]1CO[C@H]2OCC[C@H]21)S(=O)(=O)c1ccc(N)cc1.CCO; tested on = rep papain-like protease; conditions = concentration not given, C111S mutant; how to read = relative to: positive control; quantity = activity; result = 23.6%
Substance = C1=CC2C3C4C5C=CC4C24CNCC54C13.Cl; tested on = Matrix protein 2 S31N; conditions = concentration not given, pH 5.5, cell-based; quantity = inhibition; result = 0%
Substance = C[C@@H](O)[C@H]1C(=O)N2C(C(=O)O)=C(S[C@@H]3CN[C@H](C(=O)Nc4cccc(C(=O)[O-])c4)C3)[C@H](C)[C@H]12.[Na+]; tested on = rep nsp12 RdRp; assay = binding, biolayer interferometry; conditions = concentration not given; quantity = BLI response; result = -0.03 nm
Substance = CNCC12CC3CC(CC1C3)C2; tested on = Matrix protein 2 S31N; conditions = concentration not given, pH 5.5, cell-based; quantity = inhibition; result = 0%
Substance = SLVAVTAAQSTIEEQHKTFLDKFN; tested on = SARS-CoV-2 spike RBD; assay = peptide spot array; test system = peptide; conditions = concentration not given; how to read = relative to: wild-type ACE2 peptide; quantity = relative binding; result = 3.07
